Values quoted from earlier work that unrelated publications cite.
Protocols differ between the studies behind these lines. “And” joins repeats or separate records; there may be more than shown. ± marks the error that the study gave. In brackets after ≈: the same amount, converted by molar mass.

Clc1ccc(Cl)c(-c2c(Cl)ccc(Cl)c2Cl)c1Cl — enantiomeric fraction (Sprague-Dawley rat; intraperitoneal, racemate dosed): 0.49
CC1=C(/C=C/C(C)=C/C=C/C(C)=C/C(=O)Nc2ccc(O)cc2)C(C)(C)CCC1 — plasma concentration (paediatric neuroblastoma patients; 2450 mg/m2 per day, maximum tolerated dose): 9900 nM
CCOc1ccc2cc(-c3nn(CC4CCN(C)CC4)c4ncnc(N)c34)ccc2n1 — plasma concentration (mouse; 50 mg/kg, 5 days, accumulated): > 300000 nM
C=CCC1=C(C)C(OC(=O)[C@@H]2[C@@H](C=C(C)C)C2(C)C)CC1=O (some centres unmarked) — LD50 (rat or mouse; oral): 425 mg/kg
O=C(N[C@H](Cc1ccccc1)C(=O)Nc1ccccc1N1CCOCC1)c1cccs1 — half-life (mouse liver microsomes; 0.5 µM, pH 7.4, 0.25 mg/mL protein): 13.2 h
CNCC1CCCCC1(O)c1cccc(O)c1 (centres unmarked) — urinary excretion (human, urine; oral, dose not given, after tramadol dosing; baseline: dose): 5 to 10%
Clc1cc2c(cc1Cl)Oc1cc(Cl)c(Cl)cc1O2 — body burden (zebrafish embryos; waterborne, 0.2 ppb, repeated at 4.8 and 31.2 hpf): ~1 ppb
O=C(O)C(F)(F)C(F)(F)C(F)(F)C(F)(F)C(F)(F)C(F)(F)C(F)(F)F — elimination half-life (human): 1.5 to 10 years
C1CO1 — Vmax of hydrolysis (mouse and rat liver microsomes; 15 mM): 1.5 to 2 nmol/min/mg protein
CCCCCOc1ccc(-c2cc(-c3ccc(C(=O)N[C@H]4C[C@@H](O)[C@@H](O)NC(=O)[C@@H]5[C@@H](O)[C@@H](C)CN5C(=O)[C@H]([C@H](O)CC(N)=O)NC(=O)[C@H]([C@H](O)[C@@H](O)c5ccc(O)c(OS(=O)(=O)O)c5)NC(=O)[C@@H]5C[C@@H](O)CN5C(=O)[C@H]([C@@H](C)O)NC4=O)cc3)no2)cc1 — AUC(0-24) (adults with invasive candidiasis; 100 mg daily, steady state): 97 µg·h/mL
CC(C)(c1ccc(O)cc1)c1ccc(O)cc1 — dose-normalized AUC(0-inf) (refers to: free compound; rhesus monkey female, plasma; oral, 0.4 mg/kg): ~34 (nmol·h/mL)/(mmol/kg) and 33.7 (nmol·h/mL)/(mmol/kg)
NC(=O)N1c2ccccc2C=Cc2ccccc21 — therapeutic plasma concentration (human, plasma; total concentration, therapeutic range): 4 to 12 µg/mL
COc1ccc(C(CN(C)C)C2(O)CCCCC2)cc1 (centres unmarked) — discontinuation due to hypertension (adult patients; dose not given; baseline: patients): 0.7 to 1.3%
CN[C@@](C)(C[18F])C(=O)O — brain uptake (rat (orthotopic brain tumour); 60 min): 0.05 ± 0.02 %ID/g
CCCCCOc1ccc(-c2cc(-c3ccc(C(=O)N[C@H]4C[C@@H](O)[C@@H](O)NC(=O)[C@@H]5[C@@H](O)[C@@H](C)CN5C(=O)[C@H]([C@H](O)CC(N)=O)NC(=O)[C@H]([C@H](O)[C@@H](O)c5ccc(O)c(OS(=O)(=O)O)c5)NC(=O)[C@@H]5C[C@@H](O)CN5C(=O)[C@H]([C@@H](C)O)NC4=O)cc3)no2)cc1 — intrinsic plasma clearance (human hepatocytes, adult): 43.4 ± 3 mL/min/kg
C[n+]1ccccc1/C=N/O — brain penetration (microdialysis; rat; intravenous, 10, 50, 100 mg/kg): 10%
CN[C@H]1CC[C@@H](c2ccc(Cl)c(Cl)c2)c2ccccc21 — QTc interval (human; 2250 mg, at admission, together with: diazepam 200 mg and temazepam 400 mg): 370 ms
O=S(=O)(O)C(F)(F)C(F)(F)C(F)(F)C(F)(F)C(F)(F)C(F)(F)C(F)(F)C(F)(F)F — maximum whole-body concentration (juvenile Chinook salmon, whole body wet weight; concentration not given, field-collected): 33.7 ng/g
[Cl][Mn][Cl] — Cmax (plasma; concentration not given): 53 nM
CCCCCCCCCC(=O)N[C@@H](Cc1c[nH]c2ccccc12)C(=O)N[C@H](CC(N)=O)C(=O)N[C@@H](CC(=O)O)C(=O)N[C@@H]1C(=O)NCC(=O)N[C@@H](CCCN)C(=O)N[C@@H](CC(=O)O)C(=O)N[C@H](C)C(=O)N[C@@H](CC(=O)O)C(=O)NCC(=O)N[C@H](CO)C(=O)N[C@@H]([C@H](C)CC(=O)O)C(=O)N[C@@H](CC(=O)c2ccccc2N)C(=O)O[C@@H]1C — tissue concentration (microdialysis; healthy human, soft tissue; intravenous, dose not given; baseline: free plasma): 74%
CC[C@H](C)[C@H](NC(=O)[C@H](CCCCN)NC(=O)[C@H](CCCCN)NC(=O)[C@H](Cc1c[nH]cn1)NC(=O)[C@H](CC(C)C)NC(=O)[C@H](CCCCN)NC(=O)[C@H](Cc1ccccc1)NS(=O)(=O)c1ccc(C)cc1)C(=O)N[C@@H](CC(C)C)C(=O)N[C@@H](CCCCN)C(=O)N[C@H](C(=O)N[C@@H](CC(C)C)C(N)=O)C(C)C — hemolysis (horse erythrocytes 5 % v/v; 150 µM): 4 ± 1.3%
CN[C@H]1C(=O)N[C@@H]2Cc3ccc(cc3)Oc3cc4cc(c3O[C@@H]3O[C@H](C(=O)O)[C@@H](O)[C@H](O)[C@H]3NC(=O)CCCCCCCCC(C)C)Oc3ccc(cc3Cl)[C@@H](O)[C@@H]3NC(=O)[C@H](NC(=O)[C@@H]4NC(=O)[C@@H](NC2=O)c2cc(cc(O)c2Cl)Oc2cc1ccc2O)c1ccc(O)c(c1)-c1c(O[C@H]2O[C@H](CO)[C@@H](O)[C@H](O)[C@@H]2O)cc(O)cc1[C@@H](C(=O)NCCCN(C)C)NC3=O — AUC(0-120) (adult humans; intravenous, 1000 mg single dose, median, program): 6900 µg·h/mL
CC(=O)N[C@@H](CCONC(=N)N)C(N)=O — fraction in aqueous layer (octanol-water; together with: sodium dodecanoate 2.5 equiv): 85.4 ± 0.6%
O=C1C=CC(=O)N1CCCCC[18F] — tumour uptake (mouse, INS1 tumour, tumour; [Cys40]-exendin-4 conjugate): 33.2 ± 4.79 %ID/g
Nc1ccc(Cc2ccc(N)cc2)cc1 — maximum biliary excretion rate (refers to: metabolite; rat, male and female, bile; 50 mg/kg, 45 min): ~9 µg/min/kg
Cc1ccc(OCC(=O)N(Cc2cccs2)c2ccn[nH]2)cc1 — NOAEL (Crl:CD(SD) rats, male and female; oral gavage, 90 days, highest dose tested): 100 mg/kg/day
Cn1c(=O)c2[nH]cnc2n(C)c1=O — aqueous solubility (water; hydrate form): 6750 µg/mL (≈ 37.5 mM)
COc1cc(/C=C/C(=O)CC(=O)/C=C/c2ccc(O)c(OC)c2)ccc1O — acute toxicity (mice and rats; oral, up to 5000 mg/kg, 14 days): not toxic
CC[C@H](C)[C@H](NC(=O)[C@H](CCCCN)NC(=O)[C@H](CCCCN)NC(=O)[C@H](Cc1c[nH]nn1)NC(=O)[C@H](CC(C)C)NC(=O)[C@H](CCCCN)NC(=O)[C@@H](N)CCCCN)C(=O)N[C@@H](CC(C)C)C(=O)N[C@@H](CCCCN)C(=O)N[C@@H](Cc1ccc(O)cc1)C(=O)N[C@@H](CC(C)C)C(N)=O — hemolysis (horse erythrocytes 5 % v/v; 150 µM): 1 ± 0.2%
COc1ccccc1Oc1c(NS(=O)(=O)c2ccc(C(C)(C)C)cc2)nc(-c2ncccn2)nc1OCCO — Cmax (rat, plasma; concentration not given, at LOAEL): ~30000 nM
CC1(C)CCC(CN2CCN(c3ccc(C(=O)NS(=O)(=O)c4ccc(NCC5CCOCC5)c([N+](=O)[O-])c4)c(Oc4cnc5[nH]ccc5c4)c3)CC2)=C(c2ccc(Cl)cc2)C1 — Cmax ratio (human patients; 400 mg once daily, steady state, together with: ivosidenib 500 mg once daily 14 days; baseline: with over without ivosidenib): 0.42
CC1(C)C(C=C(Cl)Cl)C1C(=O)OCc1cccc(Oc2ccccc2)c1 (centres unmarked) — LD50 (rat or mouse; oral): 383 mg/kg
CN1CCN(C2=Nc3ccccc3Oc3ccc(Cl)cc32)CC1 — Cmax (human, plasma; concentration not given, median of reported values): 140 nM
CCN(CCCOc1ccc2c(Nc3cc(CC(=O)Nc4cccc(F)c4)n[nH]3)ncnc2c1)CCOP(=O)(O)O — maximum tolerated dose (elderly AML patients, age ≥sample A years; monotherapy, Western population): 1200 mg
CC1=C(/C=C/C(C)=C/C=C/C(C)=C/C(=O)O)C(C)(C)CCC1 — Cmax (rat, plasma; concentration not given, at LOAEL): ~1000 nM
CC(C)[C@H](C(=O)Nc1ccc(C(=O)NO)cc1)c1ccccc1 — maximum tolerated dose (patients with hematologic malignancies; three times weekly): 40 mg
O=C1O[C@@H]2[C@@H](OC(=O)c3cc(O)c(O)c(O)c3-c3c1cc(O)c(O)c3O)[C@H](O)O[C@@H]1COC(=O)c3cc(O)c(O)c(O)c3-c3c(O)c(O)c4oc(=O)c5c(c(O)c(O)c6oc(=O)c3c4c65)-c3c(cc(O)c(O)c3O)C(=O)O[C@@H]21 — toxicity (rat; oral, 6 % in diet, 37 days): not toxic
O=C1NC(=O)C(c2ccccc2)(c2ccccc2)N1 — therapeutic plasma concentration (human, plasma; total concentration, therapeutic range): 10 to 20 µg/mL
Oc1cc(Cl)c(-c2ccc(Cl)cc2Cl)c(Cl)c1Cl — enantiomeric fraction (refers to: hydroxylated PCB metabolite; human liver microsomes): 0.75
CCCCCCCCCCCCCCCC(=O)NCCCC[C@H](NC(=O)[C@H](CCCCN)NC(=O)[C@H](CCCCN)NC(=O)[C@@H]1CCCN1C(=O)CNC(=O)[C@H](CC(C)C)NC(=O)[C@H](CC(C)C)NC(=O)[C@H](Cc1ccc(O)cc1)NC(=O)CNC(=O)[C@H](C)NC(=O)[C@H](CO)NC(=O)[C@H](CC(N)=O)NC(=O)[C@H](CC(C)C)NC(=O)[C@@H](NC(=O)[C@H](Cc1c[nH]c2ccccc12)NC(=O)CNC)[C@@H](C)O)C(=O)N[C@@H](CCCCN)C(N)=O — logD (calculated from HPLC retention time; octanol/PBS): 1.24
O=c1[nH]c(=O)[nH]c(=O)[nH]1 — kidney findings (wet-mount and histology; rat fetuses and neonates, kidney; 1000 mg/kg/day to dams): negative

Repeated from above:
CC[C@H](C)[C@H](NC(=O)[C@H](CCCCN)NC(=O)[C@H](CCCCN)NC(=O)[C@H](Cc1c[nH]cn1)NC(=O)[C@H](CC(C)C)NC(=O)[C@H](CCCCN)NC(=O)[C@H](Cc1ccccc1)NS(=O)(=O)c1ccc(C)cc1)C(=O)N[C@@H](CC(C)C)C(=O)N[C@@H](CCCCN)C(=O)N[C@H](C(=O)N[C@@H](CC(C)C)C(N)=O)C(C)C — hemolysis (horse erythrocytes 5 % v/v; 150 µM): 4 ± 1.3%
CNCC1CCCCC1(O)c1cccc(O)c1 (centres unmarked) — urinary excretion (human, urine; oral, dose not given, after tramadol dosing; baseline: dose): 5 to 10%
O=C1C=CC(=O)N1CCCCC[18F] — tumour uptake (mouse, INS1 tumour, tumour; [Cys40]-exendin-4 conjugate): 33.2 ± 4.79 %ID/g
O=C(O)C(F)(F)C(F)(F)C(F)(F)C(F)(F)C(F)(F)C(F)(F)C(F)(F)F — elimination half-life (human): 1.5 to 10 years
